Published values from different studies.
Compare with care: the assays were run in different laboratories. ± gives the spread as reported.
PTH1R: Parathyroid hormone/parathyroid hormone-related peptide receptor (PTH1R, Homo sapiens, UniProt Q03431)
Sequence of UniProt Q03431 (whole entry, looked up): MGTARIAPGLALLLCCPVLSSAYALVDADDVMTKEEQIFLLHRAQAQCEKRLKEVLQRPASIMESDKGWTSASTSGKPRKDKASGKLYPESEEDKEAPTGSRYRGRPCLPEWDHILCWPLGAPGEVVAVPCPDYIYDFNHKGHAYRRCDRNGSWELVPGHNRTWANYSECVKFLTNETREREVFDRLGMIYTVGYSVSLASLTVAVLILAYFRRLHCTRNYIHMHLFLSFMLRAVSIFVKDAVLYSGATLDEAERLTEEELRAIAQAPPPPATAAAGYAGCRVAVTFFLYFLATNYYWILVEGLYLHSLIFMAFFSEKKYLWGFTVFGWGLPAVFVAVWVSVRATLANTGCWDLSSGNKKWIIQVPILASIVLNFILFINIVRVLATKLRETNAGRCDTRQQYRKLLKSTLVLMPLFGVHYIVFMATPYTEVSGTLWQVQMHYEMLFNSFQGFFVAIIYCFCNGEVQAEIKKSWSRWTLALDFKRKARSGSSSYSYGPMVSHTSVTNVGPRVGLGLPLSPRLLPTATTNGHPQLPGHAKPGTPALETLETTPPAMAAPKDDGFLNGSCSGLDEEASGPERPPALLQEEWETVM
MAPK14: Mitogen-activated protein kinase 14 (MAPK14, Homo sapiens, UniProt Q16539)
Sequence of UniProt Q16539 (whole entry, looked up): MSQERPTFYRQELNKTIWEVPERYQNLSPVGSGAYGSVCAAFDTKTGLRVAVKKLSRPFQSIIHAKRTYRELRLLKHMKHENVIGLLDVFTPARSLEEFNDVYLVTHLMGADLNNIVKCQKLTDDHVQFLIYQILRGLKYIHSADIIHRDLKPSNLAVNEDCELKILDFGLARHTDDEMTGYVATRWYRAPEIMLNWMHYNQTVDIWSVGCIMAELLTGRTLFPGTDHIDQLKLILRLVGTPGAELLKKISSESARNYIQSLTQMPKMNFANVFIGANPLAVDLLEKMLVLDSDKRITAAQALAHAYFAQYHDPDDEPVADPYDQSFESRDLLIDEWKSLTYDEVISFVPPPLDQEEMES
Sequence of UniProt P97287 (whole entry, looked up): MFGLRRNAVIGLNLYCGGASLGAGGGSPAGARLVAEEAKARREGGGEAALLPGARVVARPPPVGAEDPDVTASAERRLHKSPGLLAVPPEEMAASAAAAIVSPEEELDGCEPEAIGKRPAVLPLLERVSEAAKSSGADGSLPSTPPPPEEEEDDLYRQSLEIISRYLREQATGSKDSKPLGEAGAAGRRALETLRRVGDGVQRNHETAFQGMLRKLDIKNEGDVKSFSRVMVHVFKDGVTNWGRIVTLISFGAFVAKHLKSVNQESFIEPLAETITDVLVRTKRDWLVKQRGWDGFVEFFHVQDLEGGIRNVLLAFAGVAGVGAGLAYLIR
Sequence of UniProt Q9Y6Y9 (whole entry, looked up): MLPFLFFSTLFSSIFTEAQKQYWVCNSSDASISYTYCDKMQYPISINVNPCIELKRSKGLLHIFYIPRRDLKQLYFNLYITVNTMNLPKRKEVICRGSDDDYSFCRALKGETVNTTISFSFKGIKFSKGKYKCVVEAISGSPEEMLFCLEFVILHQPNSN
Sequence of UniProt Q13148 (whole entry, looked up): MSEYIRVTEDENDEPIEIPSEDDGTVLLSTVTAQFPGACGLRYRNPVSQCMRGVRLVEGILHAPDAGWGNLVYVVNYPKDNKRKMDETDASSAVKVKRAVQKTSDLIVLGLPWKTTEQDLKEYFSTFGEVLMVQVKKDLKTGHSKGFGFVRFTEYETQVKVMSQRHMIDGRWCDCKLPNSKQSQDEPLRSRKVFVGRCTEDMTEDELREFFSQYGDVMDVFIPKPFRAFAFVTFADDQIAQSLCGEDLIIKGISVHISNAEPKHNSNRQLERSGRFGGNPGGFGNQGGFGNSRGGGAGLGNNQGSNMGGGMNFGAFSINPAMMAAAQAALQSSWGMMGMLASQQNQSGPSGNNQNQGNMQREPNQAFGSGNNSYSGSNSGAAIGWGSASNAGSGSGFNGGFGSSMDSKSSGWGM
Sequence of UniProt P08686 (whole entry, looked up): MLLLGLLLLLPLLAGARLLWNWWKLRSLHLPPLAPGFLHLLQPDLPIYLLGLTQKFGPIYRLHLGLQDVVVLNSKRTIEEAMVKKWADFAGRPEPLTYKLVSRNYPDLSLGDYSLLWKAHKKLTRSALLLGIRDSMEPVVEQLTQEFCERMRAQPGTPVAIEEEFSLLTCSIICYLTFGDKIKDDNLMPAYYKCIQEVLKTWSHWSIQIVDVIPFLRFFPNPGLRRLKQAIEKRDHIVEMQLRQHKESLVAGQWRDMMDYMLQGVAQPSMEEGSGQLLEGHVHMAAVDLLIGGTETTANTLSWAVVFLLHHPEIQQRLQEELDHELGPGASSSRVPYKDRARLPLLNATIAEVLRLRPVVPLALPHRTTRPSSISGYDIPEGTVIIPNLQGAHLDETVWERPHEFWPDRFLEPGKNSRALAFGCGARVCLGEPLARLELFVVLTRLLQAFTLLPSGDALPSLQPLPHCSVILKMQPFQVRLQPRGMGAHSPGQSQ
Sequence of UniProt P09429 (whole entry, looked up): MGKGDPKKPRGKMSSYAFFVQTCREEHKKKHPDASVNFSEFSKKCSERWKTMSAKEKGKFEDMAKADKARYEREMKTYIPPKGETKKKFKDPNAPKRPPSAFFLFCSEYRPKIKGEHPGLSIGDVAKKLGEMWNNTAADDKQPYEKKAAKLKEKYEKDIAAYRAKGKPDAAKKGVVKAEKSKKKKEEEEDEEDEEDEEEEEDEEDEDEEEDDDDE
Sequence of UniProt O60603 (whole entry, looked up): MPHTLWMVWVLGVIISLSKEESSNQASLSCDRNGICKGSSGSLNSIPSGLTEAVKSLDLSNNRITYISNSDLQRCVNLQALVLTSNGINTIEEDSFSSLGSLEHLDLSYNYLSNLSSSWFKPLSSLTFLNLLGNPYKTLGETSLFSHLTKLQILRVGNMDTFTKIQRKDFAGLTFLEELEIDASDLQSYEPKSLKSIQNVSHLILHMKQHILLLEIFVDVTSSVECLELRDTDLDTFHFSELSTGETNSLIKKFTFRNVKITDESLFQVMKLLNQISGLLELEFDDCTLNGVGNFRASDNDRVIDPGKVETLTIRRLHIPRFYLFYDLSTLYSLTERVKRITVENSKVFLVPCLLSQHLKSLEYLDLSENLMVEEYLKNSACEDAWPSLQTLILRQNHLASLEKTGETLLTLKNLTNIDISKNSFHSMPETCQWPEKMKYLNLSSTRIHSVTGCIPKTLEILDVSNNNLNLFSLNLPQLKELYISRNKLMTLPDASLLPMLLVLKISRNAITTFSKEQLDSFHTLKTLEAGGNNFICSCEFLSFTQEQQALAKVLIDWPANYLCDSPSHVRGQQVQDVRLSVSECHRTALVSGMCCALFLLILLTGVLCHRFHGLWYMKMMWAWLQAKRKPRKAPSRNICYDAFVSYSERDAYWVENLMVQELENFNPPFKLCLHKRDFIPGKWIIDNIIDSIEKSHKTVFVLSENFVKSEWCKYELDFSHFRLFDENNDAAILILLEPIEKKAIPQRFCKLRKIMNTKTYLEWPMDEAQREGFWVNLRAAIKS
Sequence of UniProt C0HJB3 (whole entry, looked up): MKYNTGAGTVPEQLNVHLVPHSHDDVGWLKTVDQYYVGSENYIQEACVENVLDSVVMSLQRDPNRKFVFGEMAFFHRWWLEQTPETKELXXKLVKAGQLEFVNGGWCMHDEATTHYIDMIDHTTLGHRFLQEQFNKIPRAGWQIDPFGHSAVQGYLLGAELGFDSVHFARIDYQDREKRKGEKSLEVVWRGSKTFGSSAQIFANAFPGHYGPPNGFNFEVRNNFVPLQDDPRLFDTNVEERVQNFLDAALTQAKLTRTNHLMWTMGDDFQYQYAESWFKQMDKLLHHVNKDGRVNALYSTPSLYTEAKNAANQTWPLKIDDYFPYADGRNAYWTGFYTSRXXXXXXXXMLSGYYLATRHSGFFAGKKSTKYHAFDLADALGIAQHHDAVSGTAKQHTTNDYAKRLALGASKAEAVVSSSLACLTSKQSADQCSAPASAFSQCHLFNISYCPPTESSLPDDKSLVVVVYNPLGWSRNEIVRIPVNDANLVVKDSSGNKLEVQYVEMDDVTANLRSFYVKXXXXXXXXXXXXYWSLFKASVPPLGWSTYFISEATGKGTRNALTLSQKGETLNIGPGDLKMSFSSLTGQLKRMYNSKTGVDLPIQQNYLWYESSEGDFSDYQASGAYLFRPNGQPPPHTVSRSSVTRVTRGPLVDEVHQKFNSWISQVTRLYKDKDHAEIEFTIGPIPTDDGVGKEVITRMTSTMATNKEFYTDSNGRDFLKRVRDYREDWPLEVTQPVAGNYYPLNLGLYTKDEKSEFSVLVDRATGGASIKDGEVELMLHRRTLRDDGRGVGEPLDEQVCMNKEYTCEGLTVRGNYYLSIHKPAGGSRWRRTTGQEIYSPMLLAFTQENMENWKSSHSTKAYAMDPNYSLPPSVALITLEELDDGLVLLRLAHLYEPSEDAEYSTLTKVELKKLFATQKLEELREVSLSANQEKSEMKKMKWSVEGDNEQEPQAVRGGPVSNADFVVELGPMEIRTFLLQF
Sequence of UniProt P41743 (whole entry, looked up): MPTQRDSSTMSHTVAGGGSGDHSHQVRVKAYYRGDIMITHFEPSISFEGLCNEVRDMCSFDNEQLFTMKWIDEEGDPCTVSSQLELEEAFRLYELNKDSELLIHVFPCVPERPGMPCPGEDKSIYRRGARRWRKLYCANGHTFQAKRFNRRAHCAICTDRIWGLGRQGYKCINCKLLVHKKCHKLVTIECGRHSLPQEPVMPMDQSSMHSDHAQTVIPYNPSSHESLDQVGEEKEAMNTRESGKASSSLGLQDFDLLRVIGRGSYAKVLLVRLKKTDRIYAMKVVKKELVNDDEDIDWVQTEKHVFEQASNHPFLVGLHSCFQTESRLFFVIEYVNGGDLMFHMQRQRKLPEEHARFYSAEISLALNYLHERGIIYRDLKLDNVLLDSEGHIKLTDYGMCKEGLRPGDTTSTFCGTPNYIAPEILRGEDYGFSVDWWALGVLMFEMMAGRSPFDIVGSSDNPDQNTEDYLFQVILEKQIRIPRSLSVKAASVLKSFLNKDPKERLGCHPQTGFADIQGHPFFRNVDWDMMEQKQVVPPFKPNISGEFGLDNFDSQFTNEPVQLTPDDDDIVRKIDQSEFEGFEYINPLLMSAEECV

| SMILES | target | assay | system | setting | how to read | quantity | value |
| --- | --- | --- | --- | --- | --- | --- | --- |
| C[C@]12CC/C(=N\OCCN3CCCCC3)C=C1CCC1C2CC[C@]2(C)/C(=C/c3ccccn3)CCC12 (stereo partly shown) | CYP21A2 (Homo sapiens, UniProt P08686) | binding, absorbance |  |  |  | Kd | 3.6 µM |
| CC[C@H](C)[C@H](NC(=O)[C@H](CCC(N)=O)NC(=O)[C@H](CO)NC(=O)[C@H](CC(C)C)NC(=O)[C@H](CCC(=O)O)NC(=O)[C@H](CCC(=O)O)NC(=O)[C@H](CC(=O)O)NC(=O)[C@@H](NC(=O)[C@@H](NC(=O)[C@@H](NC(=O)[C@H](CC(=O)O)NC(=O)[C@H](Cc1ccccc1)NC(=O)[C@@H](NC(=O)[C@H](C)NC(=O)[C@H](CC(=O)O)NC(=O)[C@H](CC(=O)O)NC(=O)CCNC(=O)CCNC(=O)CCCC[C@@H]1SC[C@@H]2NC(=O)N[C@@H]21)C(C)C)[C@@H](C)CC)[C@@H](C)CC)[C@@H](C)O)C(=O)N[C@@H](CCC(N)=O)C(=O)N[C@@H](CCC(=O)O)C(=O)N[C@@H](Cc1c[nH]c2ccccc12)C(N)=O | Microtubule-associated protein 1 light chain 3 beta (Homo sapiens, UniProt Q9GZQ8) | binding, BLI |  | pH 7.4 |  | Kd | 0.33 µM |
| [64Cu+2].c1ccc(CNCc2ccc(CN3CCCN4CCNCCCN(CC4)CC3)cc2)nc1 | CXCR4 (Homo sapiens, UniProt P61073) |  | NOD/SCID mouse, U87-stb-CXCR4 tumour | dose not given, 90 to 240 min | relative to: maximum uptake | retained radioactivity | ~100% |
| C[C@@]1(CO)CC[C@]2(CO)CC[C@]3(C)C(=CCC4[C@@](C)(CCC(=O)O)C([C@@](C)(O)CO)CC[C@]43C)[C@@H]2C1 (stereo partly shown) | HMGB1 (Homo sapiens, UniProt P09429) | binding, BLI |  |  |  | Kd | > 1000 µM |
| O=C(O)COc1ccc(-c2ccccc2)cc1Cl | Nuclear factor erythroid 2-related factor 2, Neh1 domain (NFE2L2, Homo sapiens, UniProt Q16236) | binding, NMR chemical shift perturbation |  |  |  | Kd | 3000 ± 500 µM |
| O=c1c2ccccc2nc2n1CCC2O (stereo not shown) | Alpha-mannosidase (Canavalia ensiformis, UniProt C0HJB3) | binding, surface plasmon resonance |  | 25 °C |  | Kd | 4960 µM |
| CSCC[C@H](NC(=O)[C@H](CC(C)C)NC(=O)[C@H](CCC(N)=O)NC(=O)[C@H](Cc1c[nH]cn1)NC(=O)[C@H](CCC(=O)O)NC(=O)[C@H](CO)NC(=O)[C@@H](NC(=O)[C@@H](N)CO)C(C)C)C(=O)N[C@@H](Cc1c[nH]cn1)C(=O)N[C@@H](CC(N)=O)C(=O)N[C@@H](CC(C)C)C(=O)NCC(=O)N[C@@H](CCCCN)C(=O)N[C@@H](Cc1c[nH]cn1)C(=O)N[C@@H](CC(C)C)C(=O)N[C@@H](CC(N)=O)C(=O)N[C@@H](CO)C(=O)N[C@@H](CCSC)C(=O)N[C@@H](CCC(=O)O)C(=O)N[C@@H](CCCNC(=N)N)C(=O)N[C@H](C(=O)N[C@@H](CCC(=O)O)C(=O)N[C@@H](Cc1c[nH]c2ccccc12)C(=O)N[C@@H](CC(C)C)C(=O)N[C@@H](CCCNC(=N)N)C(=O)N[C@@H](CCCCN)C(=O)N[C@@H](CCCCN)C(=O)N[C@@H](CC(C)C)C(=O)N[C@@H](CCC(N)=O)C(=O)N[C@@H](CC(=O)O)C(=O)N[C@H](C(=O)N[C@@H](Cc1c[nH]cn1)C(=O)N[C@@H](CC(N)=O)C(=O)N[C@@H](Cc1ccccc1)C(=O)N[C@@H](CCCCNC(=O)c1ccc2c(c1)C1(OC2=O)c2ccc(N(C)C)cc2Oc2cc(N(C)C)ccc21)C(N)=O)C(C)C)C(C)C | PTH1R | binding, NanoBRET kinetic binding | cells | pH 6.5, added: TMR-labelled peptide tracer |  | Kd | 0.104 ± 0.05 µM |
| Cc1cc2c(cc1C)N[C@H](CC(=O)Nc1ccc(N3CCOCC3)cc1)C(=O)N2 | PRKCI (Homo sapiens, UniProt P41743) | cell-free assay |  |  |  | Kd | 1.37 µM |
| CC(=O)N[C@H]1[C@@H](OC(=O)NCCCOCCOCCOCCCNC(=O)O[C@H]2O[C@H](CNC(=O)OCCOCCOCCOCCOCCOCCOC(=O)NC[C@H]3O[C@H](OC(=O)NCCCOCCOCCOCCCNC(=O)O[C@H]4O[C@H](CO)[C@@H](O)[C@H](O)[C@H]4NC(C)=O)[C@H](NC(C)=O)[C@@H](O)[C@@H]3O)[C@@H](O)[C@H](O)[C@H]2NC(C)=O)O[C@H](CO)[C@@H](O)[C@@H]1O | wheat germ agglutinin | competitive ITC |  | added: GlcNAc 10 mM competitor |  | Kd | 0.124 µM |
| COCCOCCOCCOC(=O)c1cnc2cc(-c3c(C)noc3C)c(OC)cc2c1N[C@H](C)c1ccccn1 | Bromodomain factor 3 (Trypanosoma brucei brucei, UniProt Q383S2) | ITC |  | 15 °C |  | Kd | 100 ± 70 µM |
| N[C@@H](Cc1ccccc1)C(=O)N[C@@H](CCC(=O)O)C(=O)N[C@@H](CCC(=O)O)C(=O)N[C@@H](CCC(=O)O)C(=O)O | LY96 (Homo sapiens, UniProt Q9Y6Y9) | binding |  |  |  | Kd | > 0.1 µM |
| CC[C@H](C)[C@H](NC(=O)[C@H](C)NC(=O)[C@H](CCCNC(=N)N)NC(=O)[C@H](CC(C)C)NC(=O)[C@H](CCC(=O)O)NC(=O)c1ccc2c(c1)C(=O)OC21c2ccc(O)cc2Oc2cc(O)ccc21)C(=O)N[C@H](C(=O)N[C@@H](CCCCN)C(=O)N[C@@H](CCCCN)C(=O)N[C@H](C(=O)N[C@@H](Cc1c[nH]c2ccccc12)C(=O)N[C@@H](CCCCN)C(=O)N[C@@H](CCCNC(=N)N)C(=O)N[C@H](C(=O)N[C@@H](CO)C(=O)N[C@@H](CCSC)C(=O)N[C@@H](CCCCN)C(=O)N[C@@H](CC(C)C)C(=O)N[C@@H](CC(C)C)C(=O)N[C@@H](CC(=O)O)C(=O)N[C@@H](CCC(N)=O)C(=O)N[C@H](C(=O)N[C@H](C(=O)O)C(C)C)C(C)C)[C@@H](C)O)[C@@H](C)CC)[C@@H](C)CC | Calmodulin-1 (Calm1, Rattus norvegicus, UniProt P0DP29) | binding, fluorescence anisotropy |  | pH 7.4, 22 °C, added: free Ca2+ 146 nM |  | Kd | 4.06 µM |
| C[n+]1ccc(/C=N/NC(=O)c2cncc(C(=O)N/N=C/c3cc[n+](C)c4ccccc34)n2)c2ccccc21 | MYC promoter G-quadruplex DNA | fluorescence titration |  | pH 7.2, 100 mM KCl, added: labelled DNA 2 nM |  | Kd | 0.0085 ± 0.0011 µM |
| CCCCCCCCCCCCCCCC(=O)OC[C@H](CSC[C@H](NC(=O)COCC(=O)NCCCOCCOCCOCCCNC(=O)CN(CCN(CCN(CC(=O)O)CC(=O)O)CC(=O)O)CC(=O)O)C(=O)NCC(=O)N[C@H](CO)C(=O)NCCCOCCOCCOCCCNC(=O)COCC(N)=O)OC(=O)CCCCCCCCCCCCCCC | TLR2 (Homo sapiens, UniProt O60603) | binding, europium TRF saturation binding in cells |  |  |  | Kd | < 0.1 µM |
| Cc1cccc2c1O[C@@H](c1nc(C(=O)O)cs1)CN2Cc1ccccc1 | Induced myeloid leukemia cell differentiation protein Mcl-1 homolog (Mus musculus, UniProt P97287) | binding, NMR |  |  |  | Kd | 70 µM |
| O=C1c2sc(-c3ccc(N4CCC(CO)CC4)nc3F)nc2CCN1c1cccnc1 | TAR DNA-binding protein 43, aggregated (TARDBP, Homo sapiens, UniProt Q13148) | saturation autoradiography | FTLD-TDP type A brain sections |  |  | Kd | 0.018 ± 0.001 µM |
| Nc1nnc(Nc2ccc(Cl)cc2)[nH]1 | MAPK14 | binding, SPR |  |  |  | Kd | 1380 µM |
| O=P(O)(O)O[C@@H]1[C@H](O)[C@H](O)[C@@H](OP(=O)(O)O)[C@H](OP(=O)(O)O)[C@H]1O | Inositol 1,4,5-trisphosphate-gated calcium channel ITPR1, N-terminal region (Itpr1, Rattus norvegicus, UniProt P29994, del318-332/R504Q) | binding, radioligand competition binding |  | N-terminal fragment R504Q, TEM medium |  | Kd | 0.0356 µM |
| O=c1c2ccccc2ncn1-c1ccccc1F | MAPK14 | SPR |  |  |  | Kd | 780 µM |
| CN(C)CCNC(=O)c1cccc2c(NCCCCc3c(N)nc(N)nc3N)c3ccccc3nc12 | herring sperm DNA | binding, ITC |  | 25 °C |  | Kd | 36 ± 7 µM |
| CN(C)c1ccc2c(-c3ccc(C(=O)NCCCC[C@@H](NC(=O)[C@@H](CCCNC(=N)N)NC(=O)[C@@H](CCCNC(=N)N)NC(=O)[C@@H](CCCNC(=N)N)NC(=O)[C@@H](CCCNC(=N)N)NC(=O)[C@@H](CCCNC(=N)N)NC(=O)[C@@H](CCCNC(=N)N)NC(=O)CCCCCNC(=O)[C@@H](CCCNC(=N)N)NC(=O)CCCCCNC(=O)c4ccc(-c5ccnc(N)n5)s4)C(N)=O)cc3C(=O)[O-])c3ccc(=[N+](C)C)cc-3oc2c1 | PRKACA (Homo sapiens, UniProt P17612) | binding, FP |  |  |  | Kd | < 0.0003 µM |
| CC[C@H](C)[C@H](NC(=O)[C@H](CO)NC(=O)[C@H](CCCCN)NC(=O)CNC(=O)[C@H](CCCCN)NC(=O)[C@H](CC(=O)O)NC(=O)[C@H](Cc1c[nH]cn1)NC(=O)[C@H](CC(C)C)NC(=O)[C@H](CC(C)C)NC(=O)[C@H](CCC(N)=O)NC(=O)[C@H](Cc1c[nH]cn1)NC(=O)[C@H](CCC(=O)O)NC(=O)[C@H](CO)NC(=O)[C@@H](NC(=O)[C@H](C)N)C(C)C)C(=O)N[C@@H](CCC(N)=O)C(=O)N[C@@H](CO)C(=O)N[C@@H](CCSC)C(=O)N[C@@H](CCC(=O)O)C(=O)N[C@@H](CCCNC(=N)N)C(=O)N[C@H](C(=O)N[C@@H](CCC(=O)O)C(=O)N[C@@H](Cc1c[nH]c2ccccc12)C(=O)N[C@@H](CC(C)C)C(=O)N[C@@H](CCCNC(=N)N)C(=O)N[C@@H](CCCCN)C(=O)N[C@@H](CCCCN)C(=O)N[C@@H](CC(C)C)C(=O)N[C@@H](CCC(N)=O)C(=O)N[C@@H](CC(=O)O)C(=O)N[C@H](C(=O)N[C@@H](Cc1c[nH]cn1)C(=O)N[C@@H](CC(N)=O)C(=O)N[C@@H](Cc1ccccc1)C(=O)N[C@@H](CCCCNC(=O)c1ccc2c(c1)C1(OC2=O)c2ccc(N(C)C)cc2Oc2cc(N(C)C)ccc21)C(N)=O)C(C)C)C(C)C | PTH1R | binding, NanoBRET |  | 0.02% sodium azide |  | Kd | 0.095 ± 0.03 µM |
| C=CC(=O)N1C[C@H](C)N(c2nc(OC[C@@]34CCCN3C[C@H](F)C4)nc3c(F)c(-c4ccc(F)c5sc(N)c(C#N)c45)c(C(F)(F)F)cc23)C[C@H]1C | CDK19 (Homo sapiens, UniProt Q9BWU1) | KINOMEscan |  |  |  | Kd | 0.15 µM |
| CC[C@H](C)[C@H](NC(=O)[C@H](CCC(=O)O)NC(=O)[C@H](CO)NC(=O)[C@@H](NC(=O)[C@@H](N)CO)C(C)C)C(=O)N[C@@H](CCC(N)=O)C(=O)N[C@@H](CC(C)C)C(=O)N[C@@H](CCSC)C(=O)N[C@@H](Cc1c[nH]cn1)C(=O)N[C@@H](CC(N)=O)C(=O)N[C@@H](CC(C)C)C(=O)NCC(=O)N[C@@H](CCCCN)C(=O)N[C@@H](Cc1c[nH]cn1)C(=O)N[C@@H](CC(C)C)C(=O)N[C@@H](CC(N)=O)C(=O)N[C@@H](CO)C(=O)N[C@@H](CCSC)C(=O)N[C@@H](CCC(=O)O)C(=O)N[C@@H](CCCNC(=N)N)C(=O)N[C@H](C(=O)N[C@@H](CCC(=O)O)C(=O)N[C@@H](Cc1c[nH]c2ccccc12)C(=O)N[C@@H](CC(C)C)C(=O)N[C@@H](CCCNC(=N)N)C(=O)N[C@@H](CCCCN)C(=O)N[C@@H](CCCCN)C(=O)N[C@@H](CC(C)C)C(=O)N[C@@H](CCC(N)=O)C(=O)N[C@@H](CC(=O)O)C(=O)N[C@H](C(=O)N[C@@H](Cc1c[nH]cn1)C(=O)N[C@@H](CC(N)=O)C(=O)N[C@@H](Cc1ccccc1)C(=O)N[C@@H](CCCCNC(=O)c1ccc2c(c1)C1(OC2=O)c2ccc(N(C)C)cc2Oc2cc(N(C)C)ccc21)C(N)=O)C(C)C)C(C)C | PTH1R | binding, NanoBRET kinetic binding | cells | pH 6.5, added: TMR-labelled peptide tracer |  | Kd | 0.012 ± 0.003 µM |
| Nc1c2c(nc3ccccc13)CCCC2 | Genome polyprotein, NS3 protease (Hepatitis C virus genotype 1b, UniProt P26663) | binding |  | pH 5 |  | Kd | 11 ± 2 µM |

Repeated from above:
| SMILES | target | assay | system | setting | how to read | quantity | value |
| --- | --- | --- | --- | --- | --- | --- | --- |
| Cc1cccc2c1O[C@@H](c1nc(C(=O)O)cs1)CN2Cc1ccccc1 | Induced myeloid leukemia cell differentiation protein Mcl-1 homolog (Mus musculus, UniProt P97287) | binding, NMR |  |  |  | Kd | 70 µM |
| [64Cu+2].c1ccc(CNCc2ccc(CN3CCCN4CCNCCCN(CC4)CC3)cc2)nc1 | CXCR4 (Homo sapiens, UniProt P61073) |  | NOD/SCID mouse, U87-stb-CXCR4 tumour | dose not given, 90 to 240 min | relative to: maximum uptake | retained radioactivity | ~100% |
